Results of several laboratories.
Numbered parts are unrelated; each lists some results of a single study.

Set 1
Target: Ras GTPase-activating protein-binding protein 1, full length (G3BP1, Homo sapiens, UniProt Q13283)
Chain of UniProt Q13283 (whole entry, looked up): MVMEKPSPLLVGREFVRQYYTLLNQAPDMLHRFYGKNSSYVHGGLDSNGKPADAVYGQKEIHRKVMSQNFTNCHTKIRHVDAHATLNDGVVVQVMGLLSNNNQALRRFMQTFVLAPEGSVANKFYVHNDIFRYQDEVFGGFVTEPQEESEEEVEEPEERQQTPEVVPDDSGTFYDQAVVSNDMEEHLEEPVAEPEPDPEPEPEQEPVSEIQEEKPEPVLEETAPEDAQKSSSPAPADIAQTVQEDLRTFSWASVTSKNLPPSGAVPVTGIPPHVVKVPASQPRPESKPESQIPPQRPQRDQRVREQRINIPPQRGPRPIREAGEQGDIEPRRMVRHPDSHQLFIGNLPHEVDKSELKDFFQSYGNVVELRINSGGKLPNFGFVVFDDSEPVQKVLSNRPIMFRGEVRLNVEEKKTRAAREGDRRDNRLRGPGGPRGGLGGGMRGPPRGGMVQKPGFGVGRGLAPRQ
Technique: RNA Bind-n-Seq
Form: RNA
Matrix: in vitro
Tested at: 200 nM
Setting: whole 134-nt RNA, ends assumed
With: 150 mM KCl
Baseline: input library
Reading: higher = stronger binding
Endpoint: log2 enrichment
Shared flanks, not repeated: GGGAGUUCUACAGUCCGACGAUC … UGGAAUUCUCGGGUGUCAAGG
UGGAGAUGACAGAAAUGACUGGUGUGUCGCUGAAACGUGGGGCACUGGUUGUCGAAGAUAAUGACAGUGGAGUCCCAGUUGAAGAGACAA: -1.92
CUCAAGUCCUGUGCUACACAUCGUAUGUACCGAAUCGGGUUGGGGUUGGGUUGGAAAGUAUUAUGUUACGCCGUUCGGAUCUGCACUUCC: 0.297
GUCCUGUGCUACACAUCGUAUGUACCGAAUCAAACCCCCAAAUUUAAACCCCCCCAAAAAAGUAUUAUGUUACGCCGUUCGGAUCUGCAC: -0.139
UUGUGGGAGGAUUUUGAGAUACUUAUUCUUUAUUUGAGCCAGUCUUGCAAGGUUAACUUCUCACUGGGCCUAGUGUGGUGCCCAGGUUUU: -1.81
GUCCUGUGCUACACAUCGUAUGUACCGAAUCGGGGAAAAAAAGGGGAGGGGUUUGGGGAAAGUAUUAUGUUACGCCGUUCGGAUCUGCAC: 0.258

Set 2
Target: Interferon regulatory factor 5, full length, phosphomimetic (IRF5, Homo sapiens, UniProt Q13568-2, residues 1-514, K96S/S451D/S453D/S456D/S462D)
Technique: protein-binding microarray
Form: double-stranded DNA, one strand shown
Matrix: in vitro
Tested at: 250 nM
Setting: 60-bp whole probe
With: salmon DNA 0.4 mg/ml
Baseline: random background probes
Reading: higher = stronger binding
Endpoint: log fluorescence
Shared flanks, not repeated: GCCTAGCAC … GTGCTAGGTCTTGATTCGCTTGACGCTGCTG
TTAGATTTCAGTTCCGCTTA: 2.54 z-score
TTTGGTTTCGGTATCGGTTA: 11.6 z-score
TCAAGTCTCTGTTCTTTACT: 0.502 z-score
GAAGATATCAGACTGGAGAC: 0.152 z-score
GACGGTTACCTTATCCTGAC: -0.135 z-score

Set 3
Target: RING finger protein unkempt homolog, zinc fingers 1-6, SBP tag (UNK, Homo sapiens, UniProt Q9C0B0, residues 30-357)
Chain of UniProt Q9C0B0 (30-357, looked up): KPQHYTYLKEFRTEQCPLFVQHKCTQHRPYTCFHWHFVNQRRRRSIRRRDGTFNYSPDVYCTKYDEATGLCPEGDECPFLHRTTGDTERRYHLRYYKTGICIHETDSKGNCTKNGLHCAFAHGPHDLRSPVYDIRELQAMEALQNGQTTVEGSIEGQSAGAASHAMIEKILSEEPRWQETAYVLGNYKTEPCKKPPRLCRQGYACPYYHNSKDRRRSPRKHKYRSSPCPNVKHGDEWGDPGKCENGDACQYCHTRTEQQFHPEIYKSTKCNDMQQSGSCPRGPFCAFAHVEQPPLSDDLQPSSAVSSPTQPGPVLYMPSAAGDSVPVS
Technique: RNA Bind-n-Seq
Form: RNA
Matrix: in vitro
Tested at: 100 nM
Setting: RNA with constant flanks, vertebrate orthologous sites, ends assumed
Baseline: input RNA pool
Reading: higher = stronger binding
Endpoint: bound/input enrichment
Shared flanks, not repeated: GGGAGUUCUACAGUCCGACGAUC … CAACAGAGGAUUGAGCAUCA
CUACUAUAAACAACUCAGGGCAGUAUUCUCGAUAUCCUUACAGUAACCUAAAUCAGGGAUUAGUUAACAAUACAGGGAUGAAUCAGAAUUUAGGCCUUACAAAUAACACUCCAAUGAAUC: 1.14 ratio
AGUAGUUUUAAGCUUGUUUGCACAGUUCUUUUUUUCCAUUGGAAAUGGAAUCCAUUGCCUUAGGUCUUUUUAAAUAGUGUAUUAUUAUCGUUGGGGCUGGCUCAAUGCUUGAAAACCAGU: 3.19 ratio
ACCUAAAAUUAUAGCAGAAGAGCCAAGCAGUAGCAGUUUUUUUGUAAAUGUAAAAAUAAUUAGAUCCUGACUUUGUUUCCUUCUUCUAUUUUAAAAAUAAAAAAUACCUCAGUGCUAUGU: 0.455 ratio
CCUACAAUAAUGAAAACCUACAGGAAUUUUUUUAUUUUUCAUUUUCCCCCUAGGUAUACUUAGUCUUUUUCCCCCCCAGGCAGAUCAUUCUGAGUGUGCGAGUGUGUGUGCACAUGUUAC: 1.27 ratio
ACUGUUGUUAAGCACUGUGUUGCAGACCGUGUCUGACUUAGUGUAACCUAGGAGAUUUUAUAGUUUUAUUUUAAUGAAAUUCUGAUUGACGCAGAGCAGUGGGGAGAACAGUCCCUUUUA: 2.73 ratio
AGUAGUUGUAAGCUUGUUUGCACAGUUCUUUUUUUCCAUUGGAAAUGGAAUUCAUUGCCUUAGGUCUUUUUAAAUAGUGUAUUAUUAUCGUUGGGGCUGGCUCUAUGCUUGAAAACCAGU: 3.36 ratio

Mixed results
PhoQ, residues 284 288 289 292 302 303 HSSMNL
fold induction (PhoP, residues 12 14 15 18 19 TTLRV (Escherichia coli, UniProt P23836); Sort-seq, refers to: YFP reporter; E. coli; PhoQ-PhoP variant library, with: 10 µM Mg2+; baseline: high Mg2+ state, higher = stronger signaling): 5.94

Repeated from above (set 3):
ACUGUUGUUAAGCACUGUGUUGCAGACCGUGUCUGACUUAGUGUAACCUAGGAGAUUUUAUAGUUUUAUUUUAAUGAAAUUCUGAUUGACGCAGAGCAGUGGGGAGAACAGUCCCUUUUA: 2.73 ratio
AGUAGUUGUAAGCUUGUUUGCACAGUUCUUUUUUUCCAUUGGAAAUGGAAUUCAUUGCCUUAGGUCUUUUUAAAUAGUGUAUUAUUAUCGUUGGGGCUGGCUCUAUGCUUGAAAACCAGU: 3.36 ratio
